Experimental data from different studies.
Each line is one published result; not all experiments were run side by side. Several values in a cell are separate wells, animals, samples, runs or records. ± gives the spread as reported.

Cc1noc(C)c1Cn1cc(N2C(=O)CN(Cc3cccc(OS(=O)(=O)O)c3)C2=O)cn1  plasma concentration (rat Sprague-Dawley male, plasma; intravenous, 1 mg/kg of parent drug, 0.25 h): 2660 ng/mL
O=C(O)CCCOc1ccc([18F])cc1-c1cc(-c2ccccc2C(F)(F)F)n(-c2ccccc2)n1  tissue uptake (mouse, large intestine; intravenous, dose not given, 5 min): 0.73 ± 0.05 %ID/g
CSCCC(C(=O)Nc1ccc2c(c1)OCCO2)N1Cc2ccccc2C1=O (centres unmarked)  permeability coefficient (PAMPA; artificial membrane; 10 µM, 4 h): > 1 ×10⁻⁶ cm/s
CNC(=O)c1ccc([C@H]2[C@@H](F)[C@@H](F)C[C@@H](F)[C@H]2F)cc1  hepatic clearance (hepatocyte stability; cryopreserved mouse hepatocytes; 1 µM): 21 mL/min/kg
CCCN(C)c1cc(C(F)(F)F)nc(SCCC(=O)NCc2ccco2)n1  ECG parameters (electrocardiography; Wistar rat; intraperitoneal, 25 mg/kg, 2 min post-dose, isoflurane anaesthesia; relative to: vehicle control): no effect
CCC1(CC)CC(=O)N(C2c3cc(C(=O)NC4c5ccccc5CC4O)ccc3OC2(C)COC)C(=N)N1 (centres unmarked)  unbound fraction (human plasma): 0.12
O=C(CN1CCCCC1)Nc1ccc(C2CCCCC2)cc1  hepatic clearance (cynomolgus liver microsomes; 1 µM): 39 mL/min/kg
CSCc1cn(-c2cccc(C(=O)N3CCC(c4nc(-c5ccccc5)n[nH]4)CC3)c2)nn1  permeability (PAMPA; artificial lipid membrane; 30 min): 240 ± 115 ×10⁻⁶ cm/s
CC(C)C[C@H](NC(=O)[C@H](CCCN)NC(=O)CNC(=O)[C@@H](NC(=O)[C@H](C)NC(=O)[C@@H]1CSCSC[C@H](NC(=O)CC[C@H](N)C(=O)O)C(=O)N[C@@H](CC(N)=O)C(=O)N[C@@H]([C@@H](C)O)C(=O)N[C@@H](C)C(=O)N[C@@H]([C@@H](C)O)C(=O)N1)[C@@H](C)O)C(=O)N[C@@H](C)C(=O)N[C@@H](CCC(=O)O)C(=O)N[C@@](C)(Cc1ccccc1)C(=O)N[C@@H](CC(C)C)C(=O)N[C@H](C(=O)N[C@@H](CCCNC(=N)N)C(=O)N[C@@H](CO)C(=O)N[C@@H](CO)C(=O)N[C@@H](CC(N)=O)C(=O)N(C)[C@@H](CC(N)=O)C(=O)N[C@@H](Cc1ccccc1)C(=O)NCC(=O)N1CCC[C@H]1C(=O)N[C@@H](CCCCNC(=O)CC[C@H](NC(=O)CC[C@H](NC(=O)CCCCCCCCCCCCCCCCCCC(=O)O)C(=O)O)C(=O)O)C(=O)N[C@@H](CC(C)C)C(=O)N1CCC[C@H]1C(=O)N1CCC[C@H]1C(=O)N[C@H](C(=O)N[C@@H](CCC(=O)O)C(=O)N[C@H](C(=O)NCC(=O)N[C@@H](CO)C(=O)N[C@@H](CC(N)=O)C(=O)N[C@H](C(=O)N[C@@H](Cc1ccc(O)cc1)C(N)=O)[C@@H](C)O)C(C)C)[C@@H](C)O)C(C)C  half-life (human, plasma; subcutaneous, 4 mg, single dose, healthy volunteers): 15.2 days
CN(O)C(=O)CCC(=O)NCCCN(CCCCN(CCCNC(=O)CCC(=O)N(C)O)C(=O)CCC(=O)N(C)O)C(=O)CCC(=O)N(C)O.[89Zr]  intact complex (radio-TLC; aqueous buffer; 1 d, pH 7, 37 °C, 89Zr-labelled complex, added: DTPA 1000-fold excess): 94.5 ± 0.8%
COc1ccc2c(c1)CN(C(=O)CCN1CCC(Cc3ccccc3)CC1)CCS2  unbound plasma concentration (paroxysmal atrial fibrillation patients, plasma; oral, 540 mg, 60 min): 15 ± 3 nM
CC(C)CC(=O)Nc1ccc([C@H]2[C@@H](F)[C@@H](F)C[C@@H](F)[C@H]2F)cc1  hepatic clearance (hepatocyte stability; cryopreserved rat hepatocytes; 1 µM): 26 mL/min/kg
Cc1cc(F)ccc1-c1cc(N2C[C@@H](CO)N(CC(=O)O)C[C@H]2CO)ncc1N(C)C(=O)C(C)(C)c1cc(C(F)(F)F)cc(C(F)(F)F)c1  amount excreted in faeces (healthy male human; oral, 120 mg, up to 480 h cumulative; relative to: dose): 4.67% and 4.7%
CNC(=O)c1ccc(C2CCCCC2)cc1  hepatic clearance (liver microsome stability; rat liver microsomes; 1 µM): 52 mL/min/kg
COc1cccc(OC)c1-c1cc(C(=O)NC2(C(=O)O)C3CC4CC(C3)CC2C4)nn1-c1ccc(C(=O)N(C)CCCN(C)CCCN(C)C(=O)[C@H](CCCCNC(=O)[C@H](CC(C)C)NC(=O)C2OC2C(=O)O)NC(=O)CN2CCN(CC(=O)[O-])CCN(CC(=O)[O-])CCN(CC(=O)[O-])CC2)cc1C(C)C.[177Lu+3] (mixture of isomers)  tumour-to-blood ratio (mouse, HT-29 xenograft; 168 h post injection, biodistribution; relative to: tumour over blood uptake): 5.15
C=CC(=O)N1CCCC(n2c(=O)c3ncccc3n(Cc3ccc(Oc4ccccc4)cc3)c2=O)C1 (centres unmarked)  concentration (male BALB/c mouse, plasma; intraperitoneal, 200 mg/kg, 4 h): 2300 ng/mL
CN(C)c1cccc(-c2ccc([C@H]3[C@@H](F)[C@@H](F)C[C@@H](F)[C@H]3F)cc2)c1  hepatic clearance (hepatocyte stability; cryopreserved rat hepatocytes; 1 µM): 35 mL/min/kg

Repeated from above:
CNC(=O)c1ccc([C@H]2[C@@H](F)[C@@H](F)C[C@@H](F)[C@H]2F)cc1  hepatic clearance (hepatocyte stability; cryopreserved mouse hepatocytes; 1 µM): 21 mL/min/kg
Cc1noc(C)c1Cn1cc(N2C(=O)CN(Cc3cccc(OS(=O)(=O)O)c3)C2=O)cn1  plasma concentration (rat Sprague-Dawley male, plasma; intravenous, 1 mg/kg of parent drug, 0.25 h): 2660 ng/mL
